{"data": "Assay results collected from several papers", "note": "Every numbered part comes from another study and shows a few of its results, in no order.", "sequence of UniProt P42685 (whole entry, looked up)": "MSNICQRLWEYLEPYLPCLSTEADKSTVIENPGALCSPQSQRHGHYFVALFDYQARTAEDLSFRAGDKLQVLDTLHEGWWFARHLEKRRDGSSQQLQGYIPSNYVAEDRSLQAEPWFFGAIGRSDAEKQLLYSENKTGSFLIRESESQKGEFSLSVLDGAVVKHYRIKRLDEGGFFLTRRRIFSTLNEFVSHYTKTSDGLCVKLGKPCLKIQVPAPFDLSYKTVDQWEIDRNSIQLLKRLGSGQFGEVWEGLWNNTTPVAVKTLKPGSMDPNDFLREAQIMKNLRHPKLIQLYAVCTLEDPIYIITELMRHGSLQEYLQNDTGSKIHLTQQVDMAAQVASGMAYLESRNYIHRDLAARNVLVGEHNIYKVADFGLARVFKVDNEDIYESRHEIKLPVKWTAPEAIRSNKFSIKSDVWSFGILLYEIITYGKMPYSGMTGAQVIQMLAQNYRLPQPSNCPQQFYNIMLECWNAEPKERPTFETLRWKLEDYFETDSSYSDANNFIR", "sequence of UniProt Q5S007 (whole entry, unmodified, looked up)": "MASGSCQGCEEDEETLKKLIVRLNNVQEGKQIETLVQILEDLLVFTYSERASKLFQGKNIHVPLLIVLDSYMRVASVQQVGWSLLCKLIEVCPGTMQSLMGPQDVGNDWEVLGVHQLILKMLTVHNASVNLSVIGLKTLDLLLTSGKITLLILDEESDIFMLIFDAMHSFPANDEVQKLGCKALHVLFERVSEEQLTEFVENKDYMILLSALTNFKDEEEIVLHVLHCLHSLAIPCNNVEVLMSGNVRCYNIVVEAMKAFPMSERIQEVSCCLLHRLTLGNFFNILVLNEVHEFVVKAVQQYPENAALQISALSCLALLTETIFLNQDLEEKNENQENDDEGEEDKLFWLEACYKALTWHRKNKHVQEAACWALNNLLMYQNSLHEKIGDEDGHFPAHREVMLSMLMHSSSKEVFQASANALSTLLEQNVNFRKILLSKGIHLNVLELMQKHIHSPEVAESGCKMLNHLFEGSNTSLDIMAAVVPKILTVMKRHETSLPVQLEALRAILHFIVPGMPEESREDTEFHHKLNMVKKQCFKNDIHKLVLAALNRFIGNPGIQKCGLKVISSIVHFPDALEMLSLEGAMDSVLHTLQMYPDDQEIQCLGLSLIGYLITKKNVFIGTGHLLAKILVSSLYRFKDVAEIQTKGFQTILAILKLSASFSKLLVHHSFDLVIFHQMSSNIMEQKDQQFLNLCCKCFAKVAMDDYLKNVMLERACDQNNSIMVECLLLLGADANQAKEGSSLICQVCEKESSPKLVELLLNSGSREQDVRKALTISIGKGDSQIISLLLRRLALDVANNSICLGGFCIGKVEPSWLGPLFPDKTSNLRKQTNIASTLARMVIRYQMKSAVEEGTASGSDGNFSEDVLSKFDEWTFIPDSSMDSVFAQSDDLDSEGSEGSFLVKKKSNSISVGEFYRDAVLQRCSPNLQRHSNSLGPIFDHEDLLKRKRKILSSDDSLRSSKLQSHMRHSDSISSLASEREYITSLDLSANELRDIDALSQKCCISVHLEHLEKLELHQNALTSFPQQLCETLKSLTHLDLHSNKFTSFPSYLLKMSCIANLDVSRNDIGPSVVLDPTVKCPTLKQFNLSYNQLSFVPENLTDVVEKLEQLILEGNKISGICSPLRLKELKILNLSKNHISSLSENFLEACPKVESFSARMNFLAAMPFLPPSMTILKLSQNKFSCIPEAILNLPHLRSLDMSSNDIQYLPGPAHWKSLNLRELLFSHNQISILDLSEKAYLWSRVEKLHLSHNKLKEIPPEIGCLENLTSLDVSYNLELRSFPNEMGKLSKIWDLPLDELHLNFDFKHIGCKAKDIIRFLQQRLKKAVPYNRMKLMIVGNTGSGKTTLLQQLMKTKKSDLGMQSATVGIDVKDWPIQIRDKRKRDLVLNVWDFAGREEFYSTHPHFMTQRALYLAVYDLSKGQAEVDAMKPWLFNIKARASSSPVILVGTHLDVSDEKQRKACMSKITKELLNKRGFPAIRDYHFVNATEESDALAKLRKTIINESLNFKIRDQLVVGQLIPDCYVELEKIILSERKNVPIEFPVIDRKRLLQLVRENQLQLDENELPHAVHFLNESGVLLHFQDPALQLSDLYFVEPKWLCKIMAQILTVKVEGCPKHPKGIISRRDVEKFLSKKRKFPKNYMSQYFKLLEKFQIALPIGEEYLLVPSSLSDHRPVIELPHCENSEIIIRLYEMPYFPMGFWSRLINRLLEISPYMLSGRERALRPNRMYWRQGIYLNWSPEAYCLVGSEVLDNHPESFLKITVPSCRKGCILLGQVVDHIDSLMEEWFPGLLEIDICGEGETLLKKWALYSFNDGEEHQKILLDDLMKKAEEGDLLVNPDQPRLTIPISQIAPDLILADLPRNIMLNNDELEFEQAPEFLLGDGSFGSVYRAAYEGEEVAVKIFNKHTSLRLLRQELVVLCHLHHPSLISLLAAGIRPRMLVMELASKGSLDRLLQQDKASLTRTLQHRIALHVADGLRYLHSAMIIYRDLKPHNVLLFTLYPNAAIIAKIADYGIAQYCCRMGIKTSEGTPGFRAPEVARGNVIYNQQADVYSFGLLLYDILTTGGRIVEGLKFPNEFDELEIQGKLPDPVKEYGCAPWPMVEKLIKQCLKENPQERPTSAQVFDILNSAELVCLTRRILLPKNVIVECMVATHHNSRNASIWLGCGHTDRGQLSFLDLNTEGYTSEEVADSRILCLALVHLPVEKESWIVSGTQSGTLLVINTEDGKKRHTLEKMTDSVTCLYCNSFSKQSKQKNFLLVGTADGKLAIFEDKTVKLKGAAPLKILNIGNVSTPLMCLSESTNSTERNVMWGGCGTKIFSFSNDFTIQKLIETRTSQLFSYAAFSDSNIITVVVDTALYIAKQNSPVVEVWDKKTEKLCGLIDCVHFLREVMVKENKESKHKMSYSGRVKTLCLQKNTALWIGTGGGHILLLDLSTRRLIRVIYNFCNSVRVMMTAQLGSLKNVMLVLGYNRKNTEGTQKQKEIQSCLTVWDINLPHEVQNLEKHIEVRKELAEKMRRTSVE", "sequence of UniProt P22607 (whole entry, looked up)": "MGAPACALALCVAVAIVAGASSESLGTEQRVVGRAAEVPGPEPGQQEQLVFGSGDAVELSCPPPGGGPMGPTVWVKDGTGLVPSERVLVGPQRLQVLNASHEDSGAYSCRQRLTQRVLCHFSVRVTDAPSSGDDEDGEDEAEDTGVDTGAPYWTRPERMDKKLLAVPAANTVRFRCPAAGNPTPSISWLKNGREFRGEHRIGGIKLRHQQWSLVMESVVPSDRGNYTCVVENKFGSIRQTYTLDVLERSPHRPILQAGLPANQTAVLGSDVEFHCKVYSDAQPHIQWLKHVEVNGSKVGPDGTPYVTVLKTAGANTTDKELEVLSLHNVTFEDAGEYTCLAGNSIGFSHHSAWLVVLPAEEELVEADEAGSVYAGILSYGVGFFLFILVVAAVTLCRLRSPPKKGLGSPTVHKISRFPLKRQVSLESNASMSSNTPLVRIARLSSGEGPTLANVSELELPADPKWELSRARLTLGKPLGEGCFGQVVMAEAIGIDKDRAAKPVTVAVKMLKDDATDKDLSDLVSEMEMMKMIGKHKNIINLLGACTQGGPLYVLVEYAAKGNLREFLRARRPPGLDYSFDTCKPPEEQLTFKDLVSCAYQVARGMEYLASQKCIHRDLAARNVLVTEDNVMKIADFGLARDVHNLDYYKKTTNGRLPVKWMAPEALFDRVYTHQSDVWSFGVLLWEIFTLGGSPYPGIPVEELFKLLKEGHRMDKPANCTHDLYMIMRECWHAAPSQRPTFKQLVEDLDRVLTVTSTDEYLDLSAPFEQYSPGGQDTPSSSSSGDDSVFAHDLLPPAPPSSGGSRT", "sequence of UniProt P25098 (whole entry, looked up)": "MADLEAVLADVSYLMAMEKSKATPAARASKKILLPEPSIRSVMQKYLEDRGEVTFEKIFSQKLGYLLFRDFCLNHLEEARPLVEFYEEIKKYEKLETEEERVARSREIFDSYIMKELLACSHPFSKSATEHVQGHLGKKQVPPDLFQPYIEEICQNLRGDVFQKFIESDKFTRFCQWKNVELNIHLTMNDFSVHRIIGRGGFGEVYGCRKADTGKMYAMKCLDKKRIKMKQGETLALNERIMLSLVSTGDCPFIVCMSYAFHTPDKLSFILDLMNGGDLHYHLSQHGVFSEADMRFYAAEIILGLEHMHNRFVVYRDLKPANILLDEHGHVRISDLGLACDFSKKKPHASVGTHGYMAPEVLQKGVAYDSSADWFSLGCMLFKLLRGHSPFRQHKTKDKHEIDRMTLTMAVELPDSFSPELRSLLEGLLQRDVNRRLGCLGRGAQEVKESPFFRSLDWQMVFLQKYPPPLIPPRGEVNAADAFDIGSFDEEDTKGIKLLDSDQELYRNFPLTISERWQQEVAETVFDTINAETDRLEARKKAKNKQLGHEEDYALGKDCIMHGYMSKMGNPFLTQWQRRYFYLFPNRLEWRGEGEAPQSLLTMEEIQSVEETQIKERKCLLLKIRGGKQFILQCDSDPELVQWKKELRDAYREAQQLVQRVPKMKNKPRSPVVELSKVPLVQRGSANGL", "sequence of UniProt Q9Y6E0 (whole entry, looked up)": "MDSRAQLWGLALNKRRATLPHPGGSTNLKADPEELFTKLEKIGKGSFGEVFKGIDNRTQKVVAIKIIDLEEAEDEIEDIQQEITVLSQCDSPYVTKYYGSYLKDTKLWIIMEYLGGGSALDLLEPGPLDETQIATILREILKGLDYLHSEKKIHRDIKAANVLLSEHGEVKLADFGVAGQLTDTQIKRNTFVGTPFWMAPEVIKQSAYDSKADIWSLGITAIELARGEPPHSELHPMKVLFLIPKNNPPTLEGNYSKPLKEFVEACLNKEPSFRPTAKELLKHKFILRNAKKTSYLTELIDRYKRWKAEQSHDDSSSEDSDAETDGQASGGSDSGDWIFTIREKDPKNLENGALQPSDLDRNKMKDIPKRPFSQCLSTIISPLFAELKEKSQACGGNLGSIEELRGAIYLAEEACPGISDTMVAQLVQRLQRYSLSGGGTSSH"}
{"data": "Set 1", "target": "Prothrombin, mature alpha-thrombin (F2, Homo sapiens, UniProt P00734)", "method": "aptamer microarray, sandwich", "form": "DNA with 2'F-ANA", "matrix": "in vitro", "tested at": "200 nM", "notes": "whole 15-mer aptamer, many near background", "together with": "Cy3 exosite-II aptamer, 400 nM", "direction": "higher = stronger binding", "strand": "GGTTGGTGTGGTTGG"}
{"Modification": "2'F-ANA at 2 3 4 6 9 10 12 14 15", "mean fluorescence intensity": "153 a.u."}
{"Modification": "2'F-ANA at 1 2 3 10 13 15", "mean fluorescence intensity": "68.8 a.u."}
{"Modification": "2'F-ANA at 2 5 7 8 10 13 14 15", "mean fluorescence intensity": "47.3 a.u."}
{"Modification": "2'F-ANA at 1 3 6 7 8 10 11 13 14 15", "mean fluorescence intensity": "63.8 a.u."}
{"Modification": "2'F-ANA at 2 3 4 7 10 11 13 15", "mean fluorescence intensity": "218 a.u."}
{"Modification": "2'F-ANA at 1 2 3 4 5 8 9 11 14", "mean fluorescence intensity": "50.6 a.u."}
{"Modification": "2'F-ANA at 1 5 7 8 10 14", "mean fluorescence intensity": "46.7 a.u."}
{"Modification": "2'F-ANA at 1 7 8 9 10", "mean fluorescence intensity": "59.1 a.u."}
{"data": "Set 2", "Structure (SMILES)": "COc1ccc(S(=O)(=O)N(CCO)c2ccccc2CN(C)CC=Cc2ccc(Cl)cc2)cc1", "effect on": "enzyme activity", "mode": "inhibitor", "tested at": "0.5 µM", "reference": "control"}
{"target": "TBK1 (Homo sapiens, UniProt Q9UHD2)", "remaining activity [%]": 97.1}
{"target": "MAP2K2 (Homo sapiens, UniProt P36507)", "remaining activity [%]": 100}
{"target": "NEK1 (Homo sapiens, UniProt Q96PY6)", "remaining activity [%]": 104}
{"target": "MAP3K14 (Homo sapiens, UniProt Q99558)", "remaining activity [%]": 90.8}
{"target": "TEK (Homo sapiens, UniProt Q02763)", "remaining activity [%]": 105}
{"target": "MAPK3 (Homo sapiens, UniProt P27361)", "remaining activity [%]": 95.1}
{"target": "MAPKAPK2 (Homo sapiens, UniProt P49137)", "remaining activity [%]": 102}
{"target": "FGFR3 (Homo sapiens, UniProt P22607)", "remaining activity [%]": 70.1}
{"target": "MST1R (Homo sapiens, UniProt Q04912)", "remaining activity [%]": 95.4}
{"target": "MERTK (Homo sapiens, UniProt Q12866)", "remaining activity [%]": 97}
{"target": "FGFR1 (Homo sapiens, UniProt P11362)", "remaining activity [%]": 99.5}
{"target": "FRK (Homo sapiens, UniProt P42685)", "remaining activity [%]": 106}
{"target": "GRK7 (Homo sapiens, UniProt Q8WTQ7)", "remaining activity [%]": 114}
{"target": "ABL2 (Homo sapiens, UniProt P42684)", "remaining activity [%]": 97.4}
{"data": "Set 3", "target": "Fragile X messenger ribonucleoprotein 1, C-terminal low-complexity region (Fmr1, Mus musculus, UniProt P35922)", "method": "RNA Bind-n-Seq", "form": "RNA", "matrix": "in vitro", "tested at": "200 nM", "notes": "whole 134-nt RNA, ends assumed", "together with": "150 mM KCl", "reference": "input library", "direction": "higher = stronger binding", "shared flanks, not repeated": "GGGAGUUCUACAGUCCGACGAUC … UGGAAUUCUCGGGUGUCAAGG"}
{"Strand": "UUAAGUGUAUUGGAGCCCCAAGUUCUCAAUUAUUUGAGCCUCCGGGCGACAGAGCAAGAAAAGGUGAGUGGAUAGCGCAGGCAUAUUGGU", "log2 enrichment": 0.355}
{"Strand": "CUCAAGUCCUGUGCUACACAUCGUAUGUACCGAAUCGGGAAAGGGAGGGUGGGAAAGUAUUAUGUUACGCCGUUCGGAUCUGCACUUCCA", "log2 enrichment": 1.17}
{"Strand": "CUGUGCUACACAUCGUAUGUACCGAAUCGGGUUUUUUUGGGGUUUUUUUGGGGUUUUUUUGGAAAGUAUUAUGUUACGCCGUUCGGAUCU", "log2 enrichment": -0.19}
{"Strand": "CACAGACAACACGCACCCAAAAAGACACAGAGGGAAGGGGUUGGGAUGGGGACAGGGUGCACAGCAGGGCGGGGUAGGACCCCAGCCCCU", "log2 enrichment": 1.3}
{"Strand": "UCCUGUGCUACACAUCGUAUGUACCGAAUCGGUUUUUUUGGUUUUUUUGGGUUUUUUUGGAAAGUAUUAUGUUACGCCGUUCGGAUCUGC", "log2 enrichment": -0.0449}
{"Strand": "UGUACAAACACUUUCCCAUCCCCCUCAUUAACCGGCUGGAGAAGCACUAUCUGGAUAUCAACACGGUGCUGGAGAAAUGGCAGAAGAGCA", "log2 enrichment": -0.198}
{"Strand": "CUGUGCUACACAUCGUAUGUACCGAAUCGGGGUUUUUUUGGGGAAAGGGGUUUUUUUGGGGAAAGUAUUAUGUUACGCCGUUCGGAUCUG", "log2 enrichment": -0.319}
{"Strand": "CACAGACAACACGCACCCACACAGACACAGAGGGAAGGGGUUGGGAUGGGGACAGGGUAAACAGCAGGGCGGGGUAGGACCCCAGCCCCU", "log2 enrichment": 1.23}
{"data": "Set 4", "Compound": "CC1=C(C#N)[C@@H](c2ccc3[nH]nc(C)c3c2)C(C#N)=C(c2ccc(Cl)cc2)N1", "effect on": "cell-free assay", "method": "competition with immobilised ligand", "tested at": "1 µM"}
{"target": "GRK2 (Homo sapiens, UniProt P25098)", "remaining binding [%]": 88.1}
{"target": "EPHB6 (Homo sapiens, UniProt O15197)", "remaining binding [%]": 100}
{"target": "STK24 (Homo sapiens, UniProt Q9Y6E0)", "remaining binding [%]": 100}
{"target": "LRRK2 (Homo sapiens, UniProt Q5S007, G2019S)", "remaining binding [%]": 79.5}
{"note": "A few entries again (set 2):"}
{"target": "MAPK3 (Homo sapiens, UniProt P27361)", "remaining activity [%]": 95.1}
{"target": "MAPKAPK2 (Homo sapiens, UniProt P49137)", "remaining activity [%]": 102}
{"target": "FGFR3 (Homo sapiens, UniProt P22607)", "remaining activity [%]": 70.1}
{"target": "MST1R (Homo sapiens, UniProt Q04912)", "remaining activity [%]": 95.4}
{"target": "MERTK (Homo sapiens, UniProt Q12866)", "remaining activity [%]": 97}
